# Measured values pooled from the literature.
Structure (SMILES),assay,system,conditions,AUC(0-inf)
NC(=O)c1ccc(C(=O)NOCc2ccc(Sc3cccc(Cl)c3)c(C(F)(F)F)c2)cc1,,"male ICR mouse, plasma","oral, 60 mg/kg",8170 ng·h/mL
O=C(CCCCC[N+]#[C][99Tc-5]([C]#[N+]CCCCCC(=O)N[C@H]1C(O)O[C@H](CO)[C@@H](O)[C@@H]1O)([C]#[N+]CCCCCC(=O)N[C@H]1C(O)O[C@H](CO)[C@@H](O)[C@@H]1O)([C]#[N+]CCCCCC(=O)N[C@H]1C(O)O[C@H](CO)[C@@H](O)[C@@H]1O)([C]#[N+]CCCCCC(=O)N[C@H]1C(O)O[C@H](CO)[C@@H](O)[C@@H]1O)[C]#[N+]CCCCCC(=O)N[C@H]1C(O)O[C@H](CO)[C@@H](O)[C@@H]1O)N[C@H]1C(O)O[C@H](CO)[C@@H](O)[C@@H]1O (stereo partly drawn),two-compartment model,"CD-1 mouse, blood",dose not given,261 %ID/g·min
CC(C)(C)NCC(SS(=O)(=O)O)c1ccccc1 (stereo not drawn),,"Swiss Webster CFW mouse, female, plasma","oral, 100 mg/kg, from 0 h to infinity",1450 ng·h/mL
CN1CC[C@H](c2c(O)cc(O)c3c(=O)cc(/C=C/c4c(Cl)cccc4Cl)oc23)[C@H](O)C1,,"male BALB/c mouse, plasma","oral, 50 mg/kg",3710 ng·h/mL
Cc1cccc(O[C@H]2CCC[C@@H](C(C)CNCc3ccncc3)C2)c1 (relative stereo),,"C57BL/6 mouse female, plasma","oral, 25 mg/kg",2770 ng·h/mL
C#CCN(CCCNC(=O)CCCCC[N+]1=C(/C=C/C2=C(Cl)C(=C/C=C3\N(CCCCCC(=O)[O-])c4ccccc4C3(C)C)/CCC2)C(C)(C)c2ccccc21)CCCOc1ccc(Cl)cc1Cl,,"C57BL mouse, plasma","intravenous, 5 mg/kg",833000 ng·h/mL
Cc1nc(NC(=O)N2CCC[C@H]2C(N)=O)sc1-c1csc(C(C)(C)C)n1,,"CD-1 mouse, male, plasma","intraperitoneal, 10 mg/kg",6.81 µM·h
CC/C=C\C/C=C\C/C=C\C/C=C\C/C=C\C/C=C\CCC(=O)Nc1ccn(C2OC(CO)C(O)C2(F)F)c(=O)n1 (stereo not drawn),,"BALB/c mouse, pancreas","intravenous, 75 mg/kg",2410 µg·min/g
O=C(OCc1cccc(O)c1O)c1ccc(O)c(CO)c1,,"mouse CD1, male, plasma","intravenous bolus, 10 mg/kg, 0 to 30 min",1760 ng·h/mL

# Excerpt of the above:
Structure (SMILES),assay,system,conditions,AUC(0-inf)
C#CCN(CCCNC(=O)CCCCC[N+]1=C(/C=C/C2=C(Cl)C(=C/C=C3\N(CCCCCC(=O)[O-])c4ccccc4C3(C)C)/CCC2)C(C)(C)c2ccccc21)CCCOc1ccc(Cl)cc1Cl,,"C57BL mouse, plasma","intravenous, 5 mg/kg",833000 ng·h/mL
